Results collected from several papers.
Each line is one published result; not all experiments were run side by side.
CDC7 with DBF4: Cell division cycle 7-related protein kinase, with DBF4 (CDC7, Homo sapiens, UniProt O00311)
CDC7 with cyclin B1: Cell division cycle 7-related protein kinase, with cyclin B1 (CDC7, Homo sapiens, UniProt O00311)

For `Nc1ncc(-c2cc(-c3cnn(CC(F)(F)F)c3)ncc2F)nc1C(=O)NC1CNCC(F)C1` (stereo not drawn), the remaining activity was 100% (CDC7 with DBF4; enzyme activity; 1 µM; reference: DMSO control).
`CN1CC[C@@H](COc2cnc(C#N)cc2-c2ccn3nc(NC(=O)C4CC4)cc3c2)C1` has an inhibition of -21% (CDC7 with cyclin B1; inhibitor, KinaseProfiler panel; 1 µM).
The inhibition of `CCn1cc(C(=O)O)c(=O)c2c(N)c(F)c(NC3CCCCC3)cc21` is reported as 11% (CDC7 with DBF4; kinase activity; 0.1 µM, with: ATP at Km).
With `NC(=O)C[C@H]1CCc2sc3ncnc(O[C@H]4CC[C@H](N5CCOCC5)CC4)c3c21` the inhibition was -4% (CDC7 with DBF4; radioisotope kinase; 10 µM).
For `C=CC(=O)Nc1cc(-c2nn(C3CCN(CCNC(=O)[C@H](C)CCC45CC6CC(CC(C6)C4)C5)CC3)c3ncnc(N)c23)ccc1Oc1ccccc1`, the inhibition was 14.6% (CDC7 (Homo sapiens, UniProt O00311); inhibitor, KiNativ profiling; biochemical; 2 µM).
For `C=CC(=O)N1Cc2nc(-c3cc(-c4cc(Cl)cnc4Cl)c(F)cc3F)n(-c3ccncn3)c2C1`, the inhibition was 2.3% (CDC7 with DBF4; kinome panel; 1 µM).
For `O=C(Cc1ccc(OCc2ccccc2)cc1)NC1(C(=O)O)CCN(C(=O)c2ccc(-c3cccc(Cl)c3)cc2)CC1`, the remaining activity was 139% (CDC7 with cyclin B1; kinase activity, inhibitor; 10 µM, with: ATP at Km).
The inhibition of `NC(=O)[C@@H](O)C[C@H]1CCc2sc3ncnc(O[C@H]4CC[C@H](N5CCOCC5)CC4)c3c21` is reported as -6% (CDC7 with DBF4; radioisotope kinase; 10 µM).
With `CN1CCN(Cc2ccc(-c3ccc(CO[C@H]4CCC[C@@H]4NC(=O)c4cc(-c5cnn(C)c5)cnc4N)cc3)cc2)CC1` the inhibition was 1% (CDC7 with DBF4; SelectScreen kinase profiling; 0.1 µM).
